Measurements pooled from the literature.
Each numbered part is a random draw from the data of one study; scales do not carry over between parts.

Series 1
Target: Max dimerization protein 1, bHLH-zipper, MAX partner unstated (MXD1, Homo sapiens, UniProt Q05195, residues 56-136)
Technique: protein-binding microarray
Molecule type: double-stranded DNA, one strand shown
Matrix: in vitro
Tested at: not given
Notes: k-mer, scored over probes, only values ≥0.25
Direction: higher = stronger binding
Construct (chain): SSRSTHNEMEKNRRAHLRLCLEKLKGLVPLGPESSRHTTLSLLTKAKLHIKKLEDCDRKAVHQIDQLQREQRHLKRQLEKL
With `CATGGAAA` the E-score was 0.321.
With `CCCGTGTC` the E-score was 0.26.
The E-score of `ACATGCTC` is reported as 0.387.

Series 2
Target: Interferon regulatory factor 7, full length, phosphomimetic (IRF7, Homo sapiens, UniProt Q92985, residues 1-503, S471D/S472D/S475D/S476D/S477D/S483D/S484D/S487D)
Sequence of UniProt Q92985 (whole entry, unmodified, looked up): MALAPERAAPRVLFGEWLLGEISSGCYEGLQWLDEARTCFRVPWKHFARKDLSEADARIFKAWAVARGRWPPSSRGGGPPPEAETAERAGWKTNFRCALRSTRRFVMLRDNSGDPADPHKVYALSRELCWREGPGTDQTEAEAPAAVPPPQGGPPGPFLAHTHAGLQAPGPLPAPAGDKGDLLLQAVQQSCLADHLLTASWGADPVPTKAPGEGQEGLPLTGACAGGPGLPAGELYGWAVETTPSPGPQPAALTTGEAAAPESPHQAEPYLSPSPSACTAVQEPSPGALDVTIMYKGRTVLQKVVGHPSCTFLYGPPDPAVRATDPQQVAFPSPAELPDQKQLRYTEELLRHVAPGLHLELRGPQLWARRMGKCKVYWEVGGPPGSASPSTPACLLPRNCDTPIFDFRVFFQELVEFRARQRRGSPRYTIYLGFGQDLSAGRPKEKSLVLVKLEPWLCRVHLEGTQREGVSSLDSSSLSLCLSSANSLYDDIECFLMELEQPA
Technique: protein-binding microarray
Molecule type: double-stranded DNA, one strand shown
Matrix: in vitro
Tested at: 2200 nM top
Notes: 60-bp whole probe
With: salmon DNA 0.4 mg/ml
Reference: random background probes
Direction: higher = stronger binding
Shared flanks, not repeated: GCCTAGCAC … GTCTTGATTCGCTTGACGCTGCTG
`GATGGTTTCGGTCTCGGGACGTGCTAG`: “fitted relative affinity” 6.77 z-score.
`TTAGATATCAGTTTCGATTAGTGCTAG` — result for “fitted relative affinity”: 5.57 z-score.
`TTAGGACTGGACTATCGCTTAGTGCTA`: “fitted relative affinity” -0.311 z-score.
`CTAGGTTCCGGTTTCGGTTAGTGCTAG`: “fitted relative affinity” 8.45 z-score.
`TTAGGACTGGGACTGCGTTAGTGCTAG` — result for “fitted relative affinity”: -0.705 z-score.
`GACGGTTTCCTATTCCTGACGTGCTAG` — result for “fitted relative affinity”: 3.56 z-score.
Under “fitted relative affinity”, `ATGGCTTTGCAGATAAATATGTGCTAG` is recorded as -0.231 z-score.
`GACGGACTGCTCCTGCTGACGTGCTAG`: “fitted relative affinity” -0.475 z-score.
`TTAGGGCTCCTTTTCCTTTAGTGCTAG`: “fitted relative affinity” 0.951 z-score.
`TTAGGTTTCGGGTTTTGGTTAGTGCTA`: “fitted relative affinity” 7.51 z-score.

Series 3
Target: Histone acetyltransferase KAT6A, winged helix 2, GST fusion (KAT6A, Homo sapiens, UniProt Q92794, residues 85-181)
Technique: protein binding microarray
Molecule type: double-stranded DNA, one strand shown
Matrix: in vitro
Tested at: not given
Notes: 8-mer, flanks averaged, mean of 2 arrays, mostly near background
Reference: not given
Direction: higher = stronger binding
Residues (chain): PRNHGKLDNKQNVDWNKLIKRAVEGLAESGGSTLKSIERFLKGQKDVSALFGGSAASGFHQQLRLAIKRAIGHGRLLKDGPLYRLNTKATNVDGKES
The E-score of `AAATGCGA` is reported as 0.155.
With `ACTGCGGC` the E-score was 0.152.
The E-score of `GACGCTAC` is reported as 0.0647.

Other studies, line by line
PABPC1L2 full length, GST fusion: PABPC1L2, full length, GST fusion (mouse, UniProt A0ABA7IW68)
TARDBP full length, His tag: TAR DNA-binding protein 43, full length, His tag (TARDBP, Homo sapiens, UniProt Q13148, residues 1-414)
The fold induction of `PhoQ, residues 284 288 289 292 302 303 AGHLVA` is reported as 1.36 (PhoP, residues 12 14 15 18 19 AWHSL (Escherichia coli, UniProt P23836); Sort-seq, refers to: YFP reporter; E. coli; PhoQ-PhoP variant library, with: 10 µM Mg2+; reference: high Mg2+ state, higher = stronger signaling).
`GAUAGGG` has a 7-mer Z-score of 0.193 (PABPC1L2 full length, GST fusion; RNAcompete; RNA, in vitro; 20 nM, 7-mer, probes averaged, single round; reference: mean of 7-mers, higher = stronger binding).
For `AAAAUG`, “6-mer enrichment (R)” read 0.937 (TARDBP full length, His tag; RNA Bind-n-Seq; RNA, in vitro; 20 nM, 6-mer, flanks averaged, single round, with: 150 mM LiCl; reference: input library, higher = stronger binding).
`CGUGUUC` gave a 7-mer Z-score of -0.421 (PABPC1L2 full length, GST fusion; RNAcompete; RNA, in vitro; 20 nM, 7-mer, probes averaged, single round; reference: mean of 7-mers, higher = stronger binding).
`UGCCAG`: “6-mer enrichment (R)” 0.971 (TARDBP full length, His tag; RNA Bind-n-Seq; RNA, in vitro; 20 nM, 6-mer, flanks averaged, single round, with: 150 mM LiCl; reference: input library, higher = stronger binding).

Excerpt of the above (other studies, line by line):
For `AAAAUG`, “6-mer enrichment (R)” read 0.937 (TARDBP full length, His tag; RNA Bind-n-Seq; RNA, in vitro; 20 nM, 6-mer, flanks averaged, single round, with: 150 mM LiCl; reference: input library, higher = stronger binding).
`CGUGUUC` gave a 7-mer Z-score of -0.421 (PABPC1L2 full length, GST fusion; RNAcompete; RNA, in vitro; 20 nM, 7-mer, probes averaged, single round; reference: mean of 7-mers, higher = stronger binding).
